{"data": "Measurements from different studies", "note": "Each numbered part is a random draw from the data of one study; scales do not carry over between parts. Values joined by “and” are separate records of one study, mostly repeats; a detail may differ.", "chain of UniProt P17948 (whole entry, looked up)": "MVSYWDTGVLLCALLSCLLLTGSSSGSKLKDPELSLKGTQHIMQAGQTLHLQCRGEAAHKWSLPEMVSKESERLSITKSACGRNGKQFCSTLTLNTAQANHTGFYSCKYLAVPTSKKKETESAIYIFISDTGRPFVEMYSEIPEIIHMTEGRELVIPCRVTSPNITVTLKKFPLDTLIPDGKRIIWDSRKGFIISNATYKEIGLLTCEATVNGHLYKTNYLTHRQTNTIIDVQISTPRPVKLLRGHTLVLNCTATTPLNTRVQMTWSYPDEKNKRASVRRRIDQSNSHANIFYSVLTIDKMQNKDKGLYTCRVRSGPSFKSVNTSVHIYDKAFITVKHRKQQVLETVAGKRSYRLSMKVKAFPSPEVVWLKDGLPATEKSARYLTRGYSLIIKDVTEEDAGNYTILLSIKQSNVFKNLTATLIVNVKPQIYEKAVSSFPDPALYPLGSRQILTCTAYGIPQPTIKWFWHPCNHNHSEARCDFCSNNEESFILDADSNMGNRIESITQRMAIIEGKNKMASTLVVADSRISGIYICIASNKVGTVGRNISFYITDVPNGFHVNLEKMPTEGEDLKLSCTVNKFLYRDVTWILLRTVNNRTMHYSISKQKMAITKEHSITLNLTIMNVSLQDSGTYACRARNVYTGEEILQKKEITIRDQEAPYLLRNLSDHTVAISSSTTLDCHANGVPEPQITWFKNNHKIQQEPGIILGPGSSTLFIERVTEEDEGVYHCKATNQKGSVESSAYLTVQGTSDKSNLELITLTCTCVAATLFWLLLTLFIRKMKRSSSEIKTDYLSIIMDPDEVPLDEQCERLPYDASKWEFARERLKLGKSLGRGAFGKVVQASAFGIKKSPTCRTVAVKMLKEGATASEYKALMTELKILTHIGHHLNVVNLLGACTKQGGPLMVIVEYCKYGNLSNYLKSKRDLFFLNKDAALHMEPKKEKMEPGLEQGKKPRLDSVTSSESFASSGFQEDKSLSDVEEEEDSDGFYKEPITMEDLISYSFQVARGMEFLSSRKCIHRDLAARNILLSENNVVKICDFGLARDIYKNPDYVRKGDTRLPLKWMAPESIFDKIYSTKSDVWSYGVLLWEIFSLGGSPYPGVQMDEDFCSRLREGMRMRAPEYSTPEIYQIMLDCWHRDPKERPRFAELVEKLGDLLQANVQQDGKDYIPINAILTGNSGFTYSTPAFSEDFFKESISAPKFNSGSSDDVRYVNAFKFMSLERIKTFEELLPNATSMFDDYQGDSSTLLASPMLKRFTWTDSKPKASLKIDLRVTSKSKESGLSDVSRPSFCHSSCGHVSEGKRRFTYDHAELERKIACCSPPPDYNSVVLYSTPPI", "chain of UniProt P04049 (whole entry, looked up)": "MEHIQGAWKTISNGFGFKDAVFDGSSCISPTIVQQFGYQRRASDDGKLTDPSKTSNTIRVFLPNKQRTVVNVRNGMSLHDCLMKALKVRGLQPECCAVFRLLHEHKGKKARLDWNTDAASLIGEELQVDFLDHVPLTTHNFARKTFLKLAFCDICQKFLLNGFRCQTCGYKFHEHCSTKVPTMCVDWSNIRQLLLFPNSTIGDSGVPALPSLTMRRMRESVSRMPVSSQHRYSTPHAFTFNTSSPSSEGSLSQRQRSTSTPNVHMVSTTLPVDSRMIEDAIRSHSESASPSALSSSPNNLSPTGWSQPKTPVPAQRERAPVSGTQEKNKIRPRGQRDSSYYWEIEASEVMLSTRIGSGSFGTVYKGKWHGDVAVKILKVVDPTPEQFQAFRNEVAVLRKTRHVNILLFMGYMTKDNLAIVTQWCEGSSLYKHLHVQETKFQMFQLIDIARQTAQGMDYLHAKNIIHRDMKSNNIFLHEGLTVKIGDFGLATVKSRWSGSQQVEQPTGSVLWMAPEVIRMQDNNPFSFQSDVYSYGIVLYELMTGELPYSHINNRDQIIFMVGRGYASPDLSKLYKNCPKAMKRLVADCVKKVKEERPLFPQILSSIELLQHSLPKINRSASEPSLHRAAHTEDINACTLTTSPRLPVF", "chain of UniProt Q9UM73 (whole entry, unmodified, looked up)": "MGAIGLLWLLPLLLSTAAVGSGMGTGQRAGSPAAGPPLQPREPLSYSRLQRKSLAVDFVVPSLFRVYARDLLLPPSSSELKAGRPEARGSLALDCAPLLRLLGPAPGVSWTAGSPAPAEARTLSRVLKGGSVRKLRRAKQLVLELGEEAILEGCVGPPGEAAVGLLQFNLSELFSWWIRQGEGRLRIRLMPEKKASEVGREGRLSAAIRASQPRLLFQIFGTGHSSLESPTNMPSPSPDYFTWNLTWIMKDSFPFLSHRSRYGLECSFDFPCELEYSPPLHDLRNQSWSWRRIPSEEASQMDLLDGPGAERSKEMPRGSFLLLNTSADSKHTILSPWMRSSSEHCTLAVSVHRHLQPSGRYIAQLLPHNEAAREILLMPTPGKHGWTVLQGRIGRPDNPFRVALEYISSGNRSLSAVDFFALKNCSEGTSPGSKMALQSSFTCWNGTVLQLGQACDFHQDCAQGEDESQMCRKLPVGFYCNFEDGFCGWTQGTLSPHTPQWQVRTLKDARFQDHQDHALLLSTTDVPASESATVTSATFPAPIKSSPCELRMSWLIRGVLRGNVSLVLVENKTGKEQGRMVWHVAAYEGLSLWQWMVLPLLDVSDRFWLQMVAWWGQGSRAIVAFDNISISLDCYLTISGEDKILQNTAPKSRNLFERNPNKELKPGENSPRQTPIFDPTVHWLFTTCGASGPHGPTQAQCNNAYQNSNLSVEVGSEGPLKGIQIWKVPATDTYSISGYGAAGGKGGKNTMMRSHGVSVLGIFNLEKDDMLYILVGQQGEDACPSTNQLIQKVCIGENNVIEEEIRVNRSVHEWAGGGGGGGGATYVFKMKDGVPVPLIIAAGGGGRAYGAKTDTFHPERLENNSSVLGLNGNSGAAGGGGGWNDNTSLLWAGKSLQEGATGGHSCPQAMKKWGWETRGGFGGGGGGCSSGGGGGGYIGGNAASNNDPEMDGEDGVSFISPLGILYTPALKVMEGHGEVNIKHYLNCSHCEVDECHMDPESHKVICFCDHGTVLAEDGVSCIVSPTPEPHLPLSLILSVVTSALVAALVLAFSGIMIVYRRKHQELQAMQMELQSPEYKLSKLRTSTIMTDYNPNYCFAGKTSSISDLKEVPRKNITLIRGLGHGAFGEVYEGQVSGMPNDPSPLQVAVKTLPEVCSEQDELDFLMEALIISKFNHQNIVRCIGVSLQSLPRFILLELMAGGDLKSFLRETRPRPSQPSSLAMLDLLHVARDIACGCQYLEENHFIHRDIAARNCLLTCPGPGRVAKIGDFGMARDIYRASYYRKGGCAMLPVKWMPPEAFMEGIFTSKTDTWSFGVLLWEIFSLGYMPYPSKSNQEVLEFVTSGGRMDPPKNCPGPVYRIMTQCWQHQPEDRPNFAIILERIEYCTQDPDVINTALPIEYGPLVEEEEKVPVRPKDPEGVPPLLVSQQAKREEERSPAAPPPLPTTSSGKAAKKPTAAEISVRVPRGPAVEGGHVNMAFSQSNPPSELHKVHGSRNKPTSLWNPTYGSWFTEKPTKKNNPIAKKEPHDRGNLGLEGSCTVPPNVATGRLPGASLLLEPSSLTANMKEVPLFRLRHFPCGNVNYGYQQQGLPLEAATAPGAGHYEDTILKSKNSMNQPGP", "chain of UniProt P08631 (whole entry, looked up)": "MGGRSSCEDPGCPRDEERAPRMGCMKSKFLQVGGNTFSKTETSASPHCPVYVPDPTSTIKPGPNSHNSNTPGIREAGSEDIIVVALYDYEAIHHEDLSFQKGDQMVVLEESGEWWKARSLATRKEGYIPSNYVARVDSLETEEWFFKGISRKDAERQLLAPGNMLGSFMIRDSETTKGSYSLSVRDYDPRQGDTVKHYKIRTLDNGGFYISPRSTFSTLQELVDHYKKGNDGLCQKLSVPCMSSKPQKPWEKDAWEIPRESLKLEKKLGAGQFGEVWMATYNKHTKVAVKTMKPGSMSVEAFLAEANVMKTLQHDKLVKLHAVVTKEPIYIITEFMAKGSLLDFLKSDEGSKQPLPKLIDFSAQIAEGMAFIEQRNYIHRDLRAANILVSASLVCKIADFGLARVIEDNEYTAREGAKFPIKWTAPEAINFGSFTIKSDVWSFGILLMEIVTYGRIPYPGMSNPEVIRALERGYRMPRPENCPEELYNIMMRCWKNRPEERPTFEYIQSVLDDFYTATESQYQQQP", "chain of UniProt Q9HC98 (whole entry, looked up)": "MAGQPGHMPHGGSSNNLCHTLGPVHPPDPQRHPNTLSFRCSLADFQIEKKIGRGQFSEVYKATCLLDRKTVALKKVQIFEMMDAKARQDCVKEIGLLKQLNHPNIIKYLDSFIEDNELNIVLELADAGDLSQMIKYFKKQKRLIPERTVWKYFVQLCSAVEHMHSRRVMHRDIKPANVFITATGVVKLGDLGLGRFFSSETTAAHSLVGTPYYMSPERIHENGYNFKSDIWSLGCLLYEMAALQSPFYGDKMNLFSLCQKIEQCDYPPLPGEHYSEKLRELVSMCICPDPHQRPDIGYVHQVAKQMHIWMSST"}
{"data": "Sample 1", "target": "Calcium/calmodulin-dependent protein kinase type II subunit alpha (CAMK2A, Homo sapiens, UniProt Q9UQM7)", "observed": "enzyme activity", "action": "inhibitor", "concentration": "10 µM", "chain of UniProt Q9UQM7 (whole entry, looked up)": "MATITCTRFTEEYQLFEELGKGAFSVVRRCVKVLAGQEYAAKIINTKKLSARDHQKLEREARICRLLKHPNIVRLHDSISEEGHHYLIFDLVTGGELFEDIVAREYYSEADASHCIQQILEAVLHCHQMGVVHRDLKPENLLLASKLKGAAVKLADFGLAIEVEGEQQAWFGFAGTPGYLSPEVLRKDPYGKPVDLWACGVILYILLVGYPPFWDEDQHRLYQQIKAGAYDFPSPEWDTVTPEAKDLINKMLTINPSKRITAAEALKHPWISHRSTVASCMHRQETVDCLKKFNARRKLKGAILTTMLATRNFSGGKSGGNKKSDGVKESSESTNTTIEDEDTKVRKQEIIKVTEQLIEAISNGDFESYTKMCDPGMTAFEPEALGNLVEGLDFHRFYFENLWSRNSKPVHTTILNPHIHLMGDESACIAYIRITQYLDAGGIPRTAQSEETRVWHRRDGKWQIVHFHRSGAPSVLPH"}
{"Compound": "NCc1ccccc1O", "inhibition": "16%"}
{"Compound": "CC(C)C[C@H](NC(=O)[C@H](C)N)C(=O)O", "inhibition": "-10%"}
{"Compound": "C[C@H](CCC(=O)O)[C@H]1CC[C@H]2[C@@H]3[C@H](O)C[C@H]4C[C@H](O)CC[C@]4(C)[C@H]3C[C@H](O)[C@]12C", "inhibition": "-34%"}
{"Compound": "CCc1nc(C(N)=O)c(Nc2ccc(N3CCC(N4CCN(C)CC4)CC3)c(OC)c2)nc1NC1CCOCC1", "inhibition": "-0.04% and 0.01%"}
{"Compound": "O=C(O)c1ccc(O)cc1", "inhibition": "3%"}
{"Compound": "C/C1=C\\[C@@H]2[C@H](C/C=C(/CO)[C@@H](O)[C@@H]3[C@@H](O)[C@@H](C)C[C@]3(O)C1=O)C2(C)C", "inhibition": "9%"}
{"Compound": "C1=C/COCc2cc(ccc2OCCN2CCCC2)Nc2nccc(n2)-c2cccc(c2)COC/1", "inhibition": "-3%"}
{"Compound": "CC(C)NC(=N)NC(=N)Nc1ccc(Cl)cc1", "inhibition": "-3%"}
{"Compound": "NC(=O)N1c2ccccc2CC(=O)c2ccccc21", "inhibition": "2%"}
{"Compound": "CCOC(N)=O", "inhibition": "-16%"}
{"Compound": "CC[C@H](N)C(=O)O", "inhibition": "24%"}
{"Compound": "COC(=O)c1ccc(O)cn1", "inhibition": "12%"}
{"Compound": "O=P(O)(O)OC[C@H]1OC(O)(COP(=O)(O)O)[C@@H](O)[C@@H]1O (stereo partly shown)", "inhibition": "26%"}
{"data": "Sample 2", "Compound": "Cn1nc(C(F)(F)F)cc1-c1cnc(N2CCc3cc(S(=O)(=O)Nc4c(F)cc(Cl)cc4F)cc(N4CCCC4=O)c32)nc1", "technique": "competition with immobilised ligand", "concentration": "1 µM"}
{"target": "cAMP-dependent protein kinase catalytic subunit PRKX (PRKX, Homo sapiens, UniProt P51817)", "test": "cell-free assay", "remaining binding [%]": 97}
{"target": "Interferon-induced, double-stranded RNA-activated protein kinase (EIF2AK2, Homo sapiens, UniProt P19525)", "test": "cell-free assay", "remaining binding [%]": 100}
{"target": "Serine/threonine-protein kinase 32A (STK32A, Homo sapiens, UniProt Q8WU08)", "test": "cell-free assay", "remaining binding [%]": 78}
{"target": "Cyclin-dependent kinase 11A (CDK11A, Homo sapiens, UniProt Q9UQ88)", "test": "binding", "remaining binding [%]": 100}
{"target": "Proto-oncogene tyrosine-protein kinase receptor Ret (RET, Homo sapiens, UniProt P07949, M918T)", "test": "cell-free assay", "remaining binding [%]": 100}
{"target": "Serine/threonine-protein kinase Nek6 (NEK6, Homo sapiens, UniProt Q9HC98)", "test": "cell-free assay", "remaining binding [%]": 100}
{"target": "Ephrin type-A receptor 1 (EPHA1, Homo sapiens, UniProt P21709)", "test": "cell-free assay", "remaining binding [%]": 100}
{"target": "Rho-associated protein kinase 2 (ROCK2, Homo sapiens, UniProt O75116)", "test": "cell-free assay", "remaining binding [%]": 85}
{"target": "Activin receptor type-2B (ACVR2B, Homo sapiens, UniProt Q13705)", "test": "binding", "remaining binding [%]": 87}
{"target": "Vascular endothelial growth factor receptor 1 (FLT1, Homo sapiens, UniProt P17948)", "test": "cell-free assay", "remaining binding [%]": 95}
{"target": "cGMP-dependent protein kinase 2 (PRKG2, Homo sapiens, UniProt Q13237)", "test": "cell-free assay", "remaining binding [%]": 90}
{"target": "Vascular endothelial growth factor receptor 2 (KDR, Homo sapiens, UniProt P35968)", "test": "cell-free assay", "remaining binding [%]": 87}
{"target": "ALK tyrosine kinase receptor (ALK, Homo sapiens, UniProt Q9UM73, C1156Y)", "test": "cell-free assay", "remaining binding [%]": 72}
{"target": "Serine/threonine-protein kinase PAK 1 (PAK1, Homo sapiens, UniProt Q13153)", "test": "cell-free assay", "remaining binding [%]": 100}
{"target": "Receptor tyrosine-protein kinase erbB-4 (ERBB4, Homo sapiens, UniProt Q15303)", "test": "cell-free assay", "remaining binding [%]": 94}
{"data": "Sample 3", "cell line": "HaCaT", "concentration": "100 µM", "time": "18 h"}
{"SMILES": "N[C@H]1C(O)O[C@H](CO)[C@@H](O)[C@@H]1O (stereo partly shown)", "viability [%]": 101}
{"SMILES": "O=C(O)c1ccccc1O", "viability [%]": 114}
{"SMILES": "CN(Cc1ccc(C(C)(C)C)cc1)Cc1cccc2ccccc12", "viability [%]": 43.2}
{"SMILES": "CN1CCc2nc(C(=O)N[C@@H]3C[C@@H](C(=O)N(C)C)CC[C@@H]3NC(=O)C(=O)Nc3ccc(Cl)cn3)sc2C1", "viability [%]": 103}
{"SMILES": "COc1ccc(O)cc1", "viability [%]": 119}
{"SMILES": "Nc1ccc(S(=O)(=O)NC(=O)c2ccccc2)cc1", "viability [%]": 90.7}
{"SMILES": "CC1=CC(=O)c2ccccc2C1=O", "viability [%]": 21.4}
{"SMILES": "CNC(=O)c1c(C)oc2cc(Oc3ncnc4cc(OC)c(OC)cc34)ccc12", "viability [%]": 100}
{"SMILES": "O=C1CC[C@@H](C(=O)N2CSC[C@H]2C(=O)O)N1", "viability [%]": 99.9}
{"SMILES": "COc1ccc([C@@H]2CC(=O)c3c(O)cc(O[C@@H]4O[C@H](CO[C@@H]5O[C@@H](C)[C@H](O)[C@@H](O)[C@H]5O)[C@@H](O)[C@H](O)[C@H]4O)cc3O2)cc1OC", "viability [%]": 99}
{"SMILES": "Cn1cnc2c1c(=O)[nH]c(=O)n2C", "viability [%]": 95.7}
{"SMILES": "COC(=O)[C@@H]1CC2=CC(=O)CC[C@]2(C)[C@@]23O[C@@H]2C[C@@]2(C)[C@@H](CC[C@@]24CCC(=O)O4)[C@H]13", "viability [%]": 117}
{"SMILES": "[H]/N=C(\\N/C(=N/[H])NCCCCCCNC(=N)NC(=N)Nc1ccc(Cl)cc1)Nc1ccc(Cl)cc1", "viability [%]": 19.2}
{"SMILES": "O=C(c1ccc(F)cc1)C1CCN(CCn2c(=O)[nH]c3ccccc3c2=O)CC1", "viability [%]": 88.9}
{"SMILES": "O=C(O)COC(=O)Cc1ccccc1Nc1c(Cl)cccc1Cl", "viability [%]": 94.5}
{"data": "Sample 4", "Structure (SMILES)": "CCCNC(=O)Nc1ccc(Oc2ncnc3cc(OC)c(OC)cc23)cc1Cl", "observed": "enzyme activity", "action": "inhibitor", "concentration": "0.5 µM", "relative to": "control"}
{"target": "Mitogen-activated protein kinase kinase kinase kinase 5 (MAP4K5, Homo sapiens, UniProt Q9Y4K4)", "remaining activity [%]": 54.6}
{"target": "Serine/threonine-protein kinase PLK1 (PLK1, Homo sapiens, UniProt P53350)", "remaining activity [%]": 101}
{"target": "Receptor-interacting serine/threonine-protein kinase 2 (RIPK2, Homo sapiens, UniProt O43353)", "remaining activity [%]": 84.8}
{"target": "Serine/threonine-protein kinase TAO1 (TAOK1, Homo sapiens, UniProt Q7L7X3)", "remaining activity [%]": 92.2}
{"target": "Activin receptor type-1 (ACVR1, Homo sapiens, UniProt Q04771)", "remaining activity [%]": 101}
{"target": "Serine/threonine-protein kinase VRK1 (VRK1, Homo sapiens, UniProt Q99986)", "remaining activity [%]": 104}
{"target": "Insulin receptor-related protein (INSRR, Homo sapiens, UniProt P14616)", "remaining activity [%]": 98.4}
{"target": "Serine/threonine-protein kinase Sgk3 (SGK3, Homo sapiens, UniProt Q96BR1)", "remaining activity [%]": 95.5}
{"target": "Mitogen-activated protein kinase kinase kinase 9 (MAP3K9, Homo sapiens, UniProt P80192)", "remaining activity [%]": 88.9}
{"target": "Tyrosine-protein kinase HCK (HCK, Homo sapiens, UniProt P08631)", "remaining activity [%]": 88.7}
{"target": "BDNF/NT-3 growth factors receptor (NTRK2, Homo sapiens, UniProt Q16620)", "remaining activity [%]": 102}
{"target": "Serine/threonine-protein kinase D3 (PRKD3, Homo sapiens, UniProt O94806)", "remaining activity [%]": 93.4}
{"target": "Activated CDC42 kinase 1 (TNK2, Homo sapiens, UniProt Q07912)", "remaining activity [%]": 96.5}
{"target": "RAF proto-oncogene serine/threonine-protein kinase (RAF1, Homo sapiens, UniProt P04049)", "remaining activity [%]": 85.4}
{"target": "Phosphorylase b kinase gamma catalytic chain, liver/testis isoform (PHKG2, Homo sapiens, UniProt P15735)", "remaining activity [%]": 84.1}
{"target": "Serine/threonine-protein kinase ULK1 (ULK1, Homo sapiens, UniProt O75385)", "remaining activity [%]": 83.2}
{"target": "Dual specificity tyrosine-phosphorylation-regulated kinase 2 (DYRK2, Homo sapiens, UniProt Q92630)", "remaining activity [%]": 108}
{"target": "Fibroblast growth factor receptor 2 (FGFR2, Homo sapiens, UniProt P21802)", "remaining activity [%]": 91.3}
{"note": "Some of these lines once more (sample 3):"}
{"SMILES": "Cn1cnc2c1c(=O)[nH]c(=O)n2C", "viability [%]": 95.7}
{"SMILES": "COC(=O)[C@@H]1CC2=CC(=O)CC[C@]2(C)[C@@]23O[C@@H]2C[C@@]2(C)[C@@H](CC[C@@]24CCC(=O)O4)[C@H]13", "viability [%]": 117}
{"SMILES": "[H]/N=C(\\N/C(=N/[H])NCCCCCCNC(=N)NC(=N)Nc1ccc(Cl)cc1)Nc1ccc(Cl)cc1", "viability [%]": 19.2}
{"SMILES": "O=C(c1ccc(F)cc1)C1CCN(CCn2c(=O)[nH]c3ccccc3c2=O)CC1", "viability [%]": 88.9}
